Experimental data from different studies.
Protocols differ between the studies behind these lines. “And” joins repeats or separate records; there may be more than shown. ± gives the spread as reported.
agrC: Receptor-histidine kinase AgrC (agrC, Staphylococcus aureus, UniProt O07911)
CNR2: Cannabinoid receptor 2 (CNR2, Homo sapiens, UniProt P34972)
UniProt P34972, sequence (whole entry, looked up): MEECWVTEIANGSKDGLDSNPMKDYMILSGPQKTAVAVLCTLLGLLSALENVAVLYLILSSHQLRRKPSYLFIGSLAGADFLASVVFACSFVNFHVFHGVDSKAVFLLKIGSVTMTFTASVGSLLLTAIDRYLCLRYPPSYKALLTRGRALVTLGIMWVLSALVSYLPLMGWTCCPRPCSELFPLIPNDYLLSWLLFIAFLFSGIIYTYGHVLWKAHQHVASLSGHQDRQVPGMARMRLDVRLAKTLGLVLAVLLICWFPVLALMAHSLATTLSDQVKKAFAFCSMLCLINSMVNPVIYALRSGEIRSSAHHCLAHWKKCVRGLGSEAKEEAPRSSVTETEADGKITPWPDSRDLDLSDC
GPR139: Probable G-protein coupled receptor 139 (GPR139, Homo sapiens, UniProt Q6DWJ6)
UniProt Q6DWJ6, sequence (whole entry, looked up): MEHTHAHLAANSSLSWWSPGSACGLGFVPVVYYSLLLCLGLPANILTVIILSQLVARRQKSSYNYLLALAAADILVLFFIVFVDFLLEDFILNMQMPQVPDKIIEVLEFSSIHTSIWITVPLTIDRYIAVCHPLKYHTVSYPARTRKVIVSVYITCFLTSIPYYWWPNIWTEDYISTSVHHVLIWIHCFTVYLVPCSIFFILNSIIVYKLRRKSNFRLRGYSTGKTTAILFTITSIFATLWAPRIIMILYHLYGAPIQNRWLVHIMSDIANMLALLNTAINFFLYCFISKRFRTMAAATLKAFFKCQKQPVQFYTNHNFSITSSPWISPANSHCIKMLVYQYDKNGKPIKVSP
UniProt P21554, sequence (whole entry, unmodified, looked up): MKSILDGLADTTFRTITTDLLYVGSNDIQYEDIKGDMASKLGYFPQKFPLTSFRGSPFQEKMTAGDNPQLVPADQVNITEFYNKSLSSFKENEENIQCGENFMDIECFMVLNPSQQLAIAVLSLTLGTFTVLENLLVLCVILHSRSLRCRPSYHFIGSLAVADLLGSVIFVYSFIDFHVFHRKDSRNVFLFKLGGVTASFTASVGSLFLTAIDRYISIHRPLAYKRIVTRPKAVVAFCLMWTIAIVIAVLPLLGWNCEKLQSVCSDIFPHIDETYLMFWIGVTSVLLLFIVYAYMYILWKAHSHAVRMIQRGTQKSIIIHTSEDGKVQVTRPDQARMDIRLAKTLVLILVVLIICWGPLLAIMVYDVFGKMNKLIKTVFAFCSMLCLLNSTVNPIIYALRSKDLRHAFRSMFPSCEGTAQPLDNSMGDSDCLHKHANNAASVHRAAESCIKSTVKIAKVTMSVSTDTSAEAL
UniProt P16885, sequence (1-1195, looked up): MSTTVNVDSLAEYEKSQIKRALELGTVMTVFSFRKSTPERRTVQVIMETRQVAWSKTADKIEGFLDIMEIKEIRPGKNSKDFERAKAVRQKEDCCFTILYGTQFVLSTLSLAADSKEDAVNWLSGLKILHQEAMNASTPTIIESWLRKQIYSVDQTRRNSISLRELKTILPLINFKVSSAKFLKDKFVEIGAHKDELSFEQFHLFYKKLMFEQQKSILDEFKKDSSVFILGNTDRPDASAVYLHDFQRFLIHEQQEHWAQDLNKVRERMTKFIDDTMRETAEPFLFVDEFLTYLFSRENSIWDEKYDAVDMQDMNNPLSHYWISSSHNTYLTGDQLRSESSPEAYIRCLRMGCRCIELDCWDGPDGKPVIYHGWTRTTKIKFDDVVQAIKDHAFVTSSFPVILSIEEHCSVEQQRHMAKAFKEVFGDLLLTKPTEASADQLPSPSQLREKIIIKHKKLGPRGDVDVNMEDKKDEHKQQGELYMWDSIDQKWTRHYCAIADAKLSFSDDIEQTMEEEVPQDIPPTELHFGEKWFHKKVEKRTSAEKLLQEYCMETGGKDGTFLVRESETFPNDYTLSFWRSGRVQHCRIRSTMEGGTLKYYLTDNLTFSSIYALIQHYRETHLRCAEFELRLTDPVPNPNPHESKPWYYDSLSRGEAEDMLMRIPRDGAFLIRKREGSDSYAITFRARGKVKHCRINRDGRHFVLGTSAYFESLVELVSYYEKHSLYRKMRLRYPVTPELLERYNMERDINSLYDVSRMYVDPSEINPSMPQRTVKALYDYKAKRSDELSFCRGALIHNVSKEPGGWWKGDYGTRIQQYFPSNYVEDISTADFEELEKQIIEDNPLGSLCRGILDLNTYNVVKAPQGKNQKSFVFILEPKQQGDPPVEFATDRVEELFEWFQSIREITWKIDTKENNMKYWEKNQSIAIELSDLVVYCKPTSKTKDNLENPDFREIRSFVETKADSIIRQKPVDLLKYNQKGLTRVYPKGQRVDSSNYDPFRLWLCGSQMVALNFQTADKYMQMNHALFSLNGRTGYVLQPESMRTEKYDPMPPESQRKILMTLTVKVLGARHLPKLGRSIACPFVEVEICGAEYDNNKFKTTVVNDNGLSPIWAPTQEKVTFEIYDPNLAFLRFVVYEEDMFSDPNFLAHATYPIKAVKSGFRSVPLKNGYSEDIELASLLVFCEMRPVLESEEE
UniProt Q96NY8, sequence (whole entry, looked up): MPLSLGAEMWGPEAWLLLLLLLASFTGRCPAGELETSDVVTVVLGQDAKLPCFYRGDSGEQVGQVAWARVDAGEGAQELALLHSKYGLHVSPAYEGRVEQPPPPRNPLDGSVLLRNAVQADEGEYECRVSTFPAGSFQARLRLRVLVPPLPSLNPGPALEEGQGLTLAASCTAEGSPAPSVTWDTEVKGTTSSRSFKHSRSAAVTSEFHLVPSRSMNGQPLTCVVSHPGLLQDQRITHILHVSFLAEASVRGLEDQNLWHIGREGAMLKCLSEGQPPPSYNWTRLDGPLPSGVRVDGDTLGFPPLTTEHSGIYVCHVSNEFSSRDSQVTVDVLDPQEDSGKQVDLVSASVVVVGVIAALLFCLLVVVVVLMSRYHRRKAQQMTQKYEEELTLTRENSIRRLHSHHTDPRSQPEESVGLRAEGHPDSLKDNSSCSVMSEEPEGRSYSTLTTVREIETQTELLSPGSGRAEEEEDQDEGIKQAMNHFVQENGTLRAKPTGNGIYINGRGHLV
UniProt Q07011, sequence (whole entry, looked up): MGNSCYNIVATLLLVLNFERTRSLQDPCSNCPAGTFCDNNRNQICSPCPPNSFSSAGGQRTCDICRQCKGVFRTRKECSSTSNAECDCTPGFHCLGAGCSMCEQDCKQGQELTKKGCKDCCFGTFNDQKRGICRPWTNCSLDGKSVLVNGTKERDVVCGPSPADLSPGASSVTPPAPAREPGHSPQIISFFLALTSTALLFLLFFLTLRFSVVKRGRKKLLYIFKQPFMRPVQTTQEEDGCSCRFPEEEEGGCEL
UniProt Q01959, sequence (whole entry, unmodified, looked up): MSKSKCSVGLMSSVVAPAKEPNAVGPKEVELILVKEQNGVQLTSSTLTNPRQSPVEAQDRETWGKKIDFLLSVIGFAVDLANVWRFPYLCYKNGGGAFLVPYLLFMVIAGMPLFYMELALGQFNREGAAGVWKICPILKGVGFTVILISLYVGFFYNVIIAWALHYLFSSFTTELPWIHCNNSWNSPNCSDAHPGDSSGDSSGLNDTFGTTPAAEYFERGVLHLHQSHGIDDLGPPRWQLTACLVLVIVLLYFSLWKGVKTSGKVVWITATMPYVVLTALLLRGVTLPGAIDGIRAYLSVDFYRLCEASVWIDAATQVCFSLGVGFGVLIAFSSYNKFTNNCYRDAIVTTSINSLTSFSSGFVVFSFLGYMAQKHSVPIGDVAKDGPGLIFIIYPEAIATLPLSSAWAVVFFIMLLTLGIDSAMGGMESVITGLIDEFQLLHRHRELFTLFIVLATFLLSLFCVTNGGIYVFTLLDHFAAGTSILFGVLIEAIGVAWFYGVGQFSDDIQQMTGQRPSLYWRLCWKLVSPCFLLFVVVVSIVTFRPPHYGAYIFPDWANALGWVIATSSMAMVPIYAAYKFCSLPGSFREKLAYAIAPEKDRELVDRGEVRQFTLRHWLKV
UniProt Q01726, sequence (whole entry, looked up): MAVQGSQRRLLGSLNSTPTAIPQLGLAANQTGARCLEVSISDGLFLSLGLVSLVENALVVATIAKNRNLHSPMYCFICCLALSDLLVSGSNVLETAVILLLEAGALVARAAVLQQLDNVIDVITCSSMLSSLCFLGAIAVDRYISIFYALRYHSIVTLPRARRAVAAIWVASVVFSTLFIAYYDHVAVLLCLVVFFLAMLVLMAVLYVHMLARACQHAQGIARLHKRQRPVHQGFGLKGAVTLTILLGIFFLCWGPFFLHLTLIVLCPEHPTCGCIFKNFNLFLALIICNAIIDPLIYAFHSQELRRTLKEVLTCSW
UniProt P14867, sequence (whole entry, looked up): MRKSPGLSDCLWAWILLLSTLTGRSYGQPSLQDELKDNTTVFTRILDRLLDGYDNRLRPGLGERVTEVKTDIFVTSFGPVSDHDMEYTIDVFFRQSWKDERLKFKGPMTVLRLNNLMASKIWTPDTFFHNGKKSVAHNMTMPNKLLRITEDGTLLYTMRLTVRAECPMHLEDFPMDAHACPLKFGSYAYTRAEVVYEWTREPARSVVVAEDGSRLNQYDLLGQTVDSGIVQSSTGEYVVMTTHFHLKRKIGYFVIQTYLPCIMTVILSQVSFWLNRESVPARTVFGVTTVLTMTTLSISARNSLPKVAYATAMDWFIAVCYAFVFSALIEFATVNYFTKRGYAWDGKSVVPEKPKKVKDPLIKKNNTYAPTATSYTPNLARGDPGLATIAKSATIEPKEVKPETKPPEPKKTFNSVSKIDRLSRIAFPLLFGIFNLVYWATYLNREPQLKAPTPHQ
UniProt Q3TBT3, sequence (whole entry, looked up): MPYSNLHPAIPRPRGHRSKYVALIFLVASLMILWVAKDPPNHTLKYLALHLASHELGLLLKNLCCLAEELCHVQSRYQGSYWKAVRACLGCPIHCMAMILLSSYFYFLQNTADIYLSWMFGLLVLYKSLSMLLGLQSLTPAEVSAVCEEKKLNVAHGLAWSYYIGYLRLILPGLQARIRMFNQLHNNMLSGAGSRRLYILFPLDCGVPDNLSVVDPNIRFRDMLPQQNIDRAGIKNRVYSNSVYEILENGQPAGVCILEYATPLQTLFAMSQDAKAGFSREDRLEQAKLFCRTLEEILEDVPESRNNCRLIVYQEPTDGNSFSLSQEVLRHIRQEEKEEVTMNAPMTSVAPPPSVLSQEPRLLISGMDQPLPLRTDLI

The EC50 of `CC[C@H](C)[C@H]1CC(=O)N[C@@H](CCSC)C(=O)SC[C@H](NC(=O)[C@@H](NC(=O)[C@H](CO)NC(=O)[C@@H](N)Cc2ccc(O)cc2)[C@@H](C)O)C(=O)N[C@@H](CC(=O)O)C(=O)N[C@@H](Cc2ccccc2)C(=O)N1` is reported as greater than 10000 nM (agrC; Staphylococcus aureus cells).
`Cc1cc(C(c2ccc(Cl)cc2)c2ccc(Cl)cc2)sc1C(=O)N[C@@H](CCCNC(=N)N)C(=O)O` gave an EC50 of 2.82 nM (C3a anaphylatoxin chemotactic receptor (C3AR1, Homo sapiens, UniProt Q16581); cAMP, agonist, luciferase).
`Cc1cc(Oc2nc(N3CC[C@@H](c4ccncc4)C3)ncc2F)[nH]n1` has a normalised growth of 83% and 86% and 84% (Mycobacterium tuberculosis; OD; H37Rv PurF CRISPRi knockdown; 0.001953 µM, added: anhydrotetracycline low).
For `CCCC[C@@H]1NC(=O)[C@H](Cc2ccc(O)cc2)NC(=O)[C@@H]2CCCN2C(=O)[C@H](CC(=O)O)NC(=O)[C@H](C)NC(=O)[C@H](Cc2ccccc2)NC(=O)[C@@H]2CSCCC(=O)N3CN(CN(C3)C(=O)CCSC[C@@H](C(=O)N[C@@H](CNC(=O)CCOCCOCCOCCN(CCOCCOCCOCCn3cc(CCC(=O)NCCC(=O)N[C@H]4CSCCC(=O)N5CN6CN(C5)C(=O)CCSC[C@H](NC(=O)[C@@H](CC(=O)O)NC(=O)[C@H](Cc5cccc7ccccc57)NC(=O)[C@@H]5CCCN5C4=O)C(=O)N[C@@H](CCSC)C(=O)N[C@@H](CCCCNC(=N)N)C(=O)N[C@@H](CC(=O)O)C(=O)N[C@@H](Cc4c[nH]c5ccccc45)C(=O)N[C@@H](CO)C(=O)N[C@@H]([C@@H](C)O)C(=O)N4CCC[C@H]4C(=O)N4C[C@H](O)C[C@H]4C(=O)N[C@@H](Cc4c[nH]c5ccccc45)C(=O)N[C@H](C(N)=O)CSCCC6=O)nn3)CCOCCOCCOCCn3cc(CCC(=O)NCCC(=O)N[C@H]4CSCCC(=O)N5CN6CN(C5)C(=O)CCSC[C@H](NC(=O)[C@@H](CC(=O)O)NC(=O)[C@H](Cc5cccc7ccccc57)NC(=O)[C@@H]5CCCN5C4=O)C(=O)N[C@@H](CCSC)C(=O)N[C@@H](CCCCNC(=N)N)C(=O)N[C@@H](CC(=O)O)C(=O)N[C@@H](Cc4c[nH]c5ccccc45)C(=O)N[C@@H](CO)C(=O)N[C@@H]([C@@H](C)O)C(=O)N4CCC[C@H]4C(=O)N4C[C@H](O)C[C@H]4C(=O)N[C@@H](Cc4c[nH]c5ccccc45)C(=O)N[C@H](C(N)=O)CSCCC6=O)nn3)C(N)=O)NC1=O)C(=O)CCSC[C@H](NC(C)=O)C(=O)N[C@@H](CC(C)(C)C)C(=O)N1CCC[C@H]1C(=O)N[C@@H](CCC(=O)O)C(=O)N[C@H](C)C(=O)N1CCC[C@H]1C(=O)N[C@@H](Cc1ccc(O)cc1)C(=O)N2`, the EC50 was 1.56 nM (Tumor necrosis factor receptor superfamily member 9/Nectin-4 (Homo sapiens, UniProt Q07011+Q96NY8); reporter gene, agonist; HT-1376 coculture with reporter cells).
`CCN(CC)C(=O)c1ccc(C(c2cccc(O)c2)N2CC(C)N(Cc3ccccc3)CC2C)cc1` (stereo not shown) has an EC50 of 0.073 nM (Delta-type opioid receptor (OPRD1, Homo sapiens, UniProt P41143, W284A); agonist).
For `CC(C)(C)C(=O)OCOP(=O)(OCOC(=O)C(C)(C)C)C1CCCN(O)C1=O` (stereo not shown), the CC50 was greater than 100000 nM (OVCAR-4).
`O=C(Cc1ccc(Cl)c(Cl)c1)N1CCNC2COCC(N3CCCC3)C21` (stereo not shown) gave an EC50 of 25 ± 2.8 nM (Kappa-type opioid receptor (OPRK1, Homo sapiens, UniProt P41145)).
`CC[C@H](C)[C@H](NC(=O)[C@H](CO)NC(=O)[C@H](Cc1ccc(O)cc1)NC(=O)[C@H](Cc1ccc(O)cc1)NC(=O)[C@H](CC(N)=O)NC(=O)CNC(=O)[C@H](CO)NC(=O)[C@H](Cc1ccc(O)cc1)NC(=O)[C@H](CO)NC(=O)[C@H](CO)NC(=O)[C@H](CC(N)=O)NC(=O)COCCOCCNC(=O)CN1CCN(CC(=O)O)CCN(CC(=O)O)CCN(CC(=O)O)CC1)C(=O)N[C@@H](CC(C)C)C(N)=O` [copper-64 labelled]: “maximum metastasis uptake” 22.4 %IA/cc (dynamic PET; tamoxifen-induced PDAC mouse model, metastases; 0.6 min, CLDN4-expressing tumours).
`COc1ccccc1C(C[N+](=O)[O-])c1c(-c2ccccc2)[nH]c2ccccc12` (stereo not shown) gave an EC50 of 290 nM (Cannabinoid receptor 1 (CNR1, Homo sapiens, UniProt P21554, Y397A); G protein activation, agonist, BRET).
For `CCOC(=O)C(CC)(CC)NC(=O)c1ccc(C2CC2)c(Cc2ccc(F)cc2)n1`, the EC50 was 0.7 nM (CNR2; cAMP, agonist).
The EC50 of `CC(C)[C@H](NC(=O)[C@@H]1CSSC(C)(C)[C@H](NC(=O)[C@@H](N)CC(=O)O)C(=O)N[C@@H](Cc2ccccc2)C(=O)N[C@@H](Cc2c[nH]c3ccccc23)C(=O)N[C@@H](CCCCN)C(=O)N[C@@H](Cc2ccc(O)cc2)C(=O)N1)C(=O)O` is reported as 2 nM (Urotensin-2 receptor (UTS2R, Homo sapiens, UniProt Q9UKP6, W277A); IP1 accumulation, agonist, HTRF; HEK293T; 1 h, 37 °C, W277A mutant, 6.54).
The EC50 of `CC[C@H](C)[C@H](NC(=O)[C@H](Cc1ccccc1)NC(=O)[C@H](CCC(=O)O)NC(=O)[C@H](CCCNC(=N)N)NC(=O)[C@@H](NC(=O)[C@H](C)NC(=O)[C@H](CCC(=O)O)NC(=O)[C@H](CCC(=O)O)NC(=O)[C@H](CCC(=O)O)NC(=O)[C@H](CC(C)C)NC(=O)[C@H](Cc1ccc(O)cc1)NC(=O)[C@H](CCCCN)NC(=O)[C@H](CO)NC(=O)[C@H](CC(C)C)NC(=O)[C@H](CC(=O)O)NC(=O)[C@H](CO)NC(=O)[C@@H](NC(=O)[C@H](Cc1ccccc1)NC(=O)[C@@H](NC(=O)CNC(=O)[C@H](CCC(N)=O)NC(=O)[C@@H](CO)NC(=O)[C@@H](N)Cc1c[nH]cn1)[C@@H](C)O)[C@@H](C)O)C(C)C)C(=O)N[C@@H](C)C(=O)N[C@@H](Cc1c[nH]c2ccccc12)C(=O)N[C@@H](CC(C)C)C(=O)N[C@@H](CCCCN)C(=O)N[C@@H](CC(N)=O)C(=O)NCC(=O)NCC(=O)N1CCC[C@H]1C(=O)N[C@@H](CO)C(=O)N[C@@H](Cc1ccc(O)cc1)C(=O)N[C@@H](CO)C(=O)N[C@@H](CCSC)C(=O)N[C@@H](CCC(=O)O)C(=O)N[C@@H](Cc1c[nH]cn1)C(=O)N[C@@H](Cc1ccccc1)C(=O)N[C@@H](CCCNC(=N)N)C(=O)N[C@@H](Cc1c[nH]c2ccccc12)C(=O)NCC(=O)N[C@@H](CCCCN)C(=O)N1CCC[C@H]1C(=O)N[C@H](C(N)=O)C(C)C` is reported as 14.7 nM (Melanocyte-stimulating hormone receptor (MC1R, Homo sapiens, UniProt Q01726); cAMP, agonist, TR-FRET).
With `CCCCCCCCCCCCCC(=O)O[C@@H]1[C@@H](C)[C@@]2(O)[C@@H](C=C(CO)C[C@]3(O)C(=O)C(C)=C[C@@H]23)[C@@H]2C(C)(C)[C@]12OC(C)=O` the EC50 was 32000 nM (1-phosphatidylinositol 4,5-bisphosphate phosphodiesterase gamma-2, residues 1-1195 (PLCG2, Homo sapiens, UniProt P16885); enzyme activity, activator; lipid vesicles; 15 min preincubation, added: XY-69 substrate 0.5 µM).
For `CC[C@H](C)[C@@H]1NC(=O)C[C@H](Cc2ccccc2)NC(=O)[C@H](CC(=O)O)NC(=O)[C@@H](NC(=O)[C@@H](NC(=O)[C@H](CO)NC(=O)[C@@H](N)Cc2ccc(O)cc2)[C@@H](C)O)CSC(=O)[C@H](CCSC)NC1=O`, the EC50 was greater than 10000 nM (agrC; Staphylococcus aureus cells).
With `CN1CCC(c2c[nH]c3ccc(O)cc23)CC1` the EC50 was 3.61 nM (5-hydroxytryptamine receptor 1F (HTR1F, Homo sapiens, UniProt P30939); G protein activation, agonist, BRET).
For `CCCCCn1ccc(C(=O)N[C@H](C(N)=O)C(C)C)n1`, the EC50 was greater than 10000 nM (CNR2; calcium signal, agonist).
With `O=C(O)CCn1c(=O)oc2cc(Cl)c(Cl)cc21` the EC50 was greater than 100000 nM (5-hydroxytryptamine receptor 1B (HTR1B, Homo sapiens, UniProt P28222); agonist).
The EC50 of `CC[C@H](C)[C@H](NC(=O)[C@H](CCCNC(=N)N)NC(=O)[C@H](CCCNC(=N)N)NC(=O)[C@H](CC(C)C)NC(=O)[C@H](Cc1ccccc1)NC(=O)CNC(=O)CN)C(=O)N[C@@H](CCCNC(=N)N)C(=O)N1CCC[C@H]1C(=O)N[C@@H](CCCCN)C(=O)N[C@@H](CC(C)C)C(=O)N[C@@H](CCCCN)C(=O)N[C@@H](Cc1c[nH]c2ccccc12)C(=O)N[C@@H](CC(=O)O)C(=O)N[C@@H](CC(N)=O)C(=O)N[C@@H](CCC(N)=O)C(=O)O` is reported as 24300 ± 4010 nM (GPR139; calcium response, agonist, BRET; HEK293T/17, transfected).
The EC50 of `C[C@]12CC[C@H]3[C@@H](CC[C@H]4C[C@H](O)CC[C@@]43C)[C@@H]1CC(=O)C2` is reported as 22000 nM (GABA-A receptor; GABA-A site (alpha1/beta2 interface) (Homo sapiens, UniProt P14867+P47870)).
The EC50 of `CC(C)C[C@H](NC(=O)[C@H](Cc1ccccc1)NC(=O)CNC(=O)CNC(=O)[C@@H](N)Cc1ccc(O)cc1)C(=O)N[C@@H](CCCNC(=N)N)C(=O)N[C@@H](CCCCN)C(=O)N[C@@H](Cc1ccc(O)cc1)C(=O)N1CCC[C@H]1C(=O)N[C@@H](CCCCN)C(=O)O` is reported as 44600 ± 13100 nM (GPR139; calcium response, agonist, BRET; HEK293T/17, transfected).
For `CCC[C@H](C(=O)c1ccccc1)N1CCCC1`, the Ki was 581 nM (Sodium-dependent dopamine transporter (SLC6A3, Homo sapiens, UniProt Q01959); dopamine uptake, inhibitor; HEK293 transiently transfected; DAT S149A mutant, added: [3H]dopamine).
For `Cc1ccc2c(C(C[N+](=O)[O-])c3cccs3)c(-c3ccccc3)[nH]c2c1` (stereo not shown), the EC50 was 160 nM (Cannabinoid receptor 1 (CNR1, Homo sapiens, UniProt P21554, P394A); G protein activation, agonist, BRET).
Under “organ-to-brain weight ratio”, `O=C1NC2(CC2)COc2ncc(F)cc2[C@H]2COCCN2c2ccn3ncc1c3n2` is recorded as 19.8 ± 5.51% (Sprague-Dawley rat, male, thymus; oral, 20 mg/kg/day, 4 weeks dosing, end of recovery).
`CC[C@H](C)[C@@H]1NC(=O)[C@H](Cc2ccccc2)NC(=O)[C@H](CC(=O)O)NC(=O)[C@@H](NC(=O)[C@@H](NC(=O)[C@H](CO)NC(=O)[C@@H](N)Cc2ccc(O)cc2)[C@@H](C)O)CSC(=O)C[C@H](CCSC)NC1=O` gave an EC50 of greater than 10000 nM (agrC; Staphylococcus aureus cells).
For `CC[C@H](C)[C@H](NC(=O)[C@H](CO)NC(=O)[C@H](CCC(=O)O)NC(=O)[C@H](CC(C)C)NC(=O)[C@H](CCC(N)=O)NC(=O)[C@H](CCC(=O)O)NC(=O)[C@H](CC(C)C)NC(=O)CNC(=O)[C@H](CO)NC(=O)[C@@H]1CSC(CC(=O)NCCCCCC(=O)N2CCN(CCCOc3cc(C(N)=O)cc4nc(NC(=O)c5cc(C)nn5CC)n(C/C=C/Cn5c(NC(=O)c6cc(C)nn6CC)nc6cc(C(N)=O)cc(OC)c65)c34)CC2)C(=O)N1)C(=O)N[C@H](C(=O)N[C@@H](CC(N)=O)C(=O)N[C@@H](Cc1ccccc1)C(=O)N[C@@H](CCC(=O)O)C(=O)N[C@@H](CCCCN)C(=O)N[C@@H](CC(C)C)C(=O)O)[C@@H](C)CC` (stereo partly shown), the EC50 was 981 ± 97.3 nM (Stimulator of interferon genes protein (Sting1, Mus musculus, UniProt Q3TBT3); IFN-beta secretion, agonist, ELISA; dendritic cells, bone marrow-derived, mouse; 24 h, peptide conjugate, carrier-free).
